Values quoted from earlier work, collected from citations in different studies.
Protocols differ between the studies behind these lines. Numbers after ± are the reported error.

| SMILES | tested on | assay | test system | setting | quantity | result |
| --- | --- | --- | --- | --- | --- | --- |
| CCN(CC)C(=O)/C(C#N)=C/c1cc(O)c(O)c([N+](=O)[O-])c1 | – | – | dog | – | fraction unbound | 0.02 |
| O=C(O)C(F)(F)C(F)(F)C(F)(F)C(F)(F)C(F)(F)C(F)(F)C(F)(F)C(F)(F)C(F)(F)F | CYP2C9 | inhibitor | – | Tox21 screening | IC50 | 2200 ± 550 nM |
| CCCCCOc1ccc(-c2ccc(-c3ccc(C(=O)N[C@H]4C[C@@H](O)[C@@H](O)NC(=O)[C@@H]5[C@@H](O)[C@@H](C)CN5C(=O)[C@H]([C@@H](C)O)NC(=O)[C@H]([C@H](O)[C@@H](O)c5ccc(O)cc5)NC(=O)[C@@H]5C[C@@H](O)CN5C(=O)[C@H]([C@@H](C)O)NC4=O)cc3)cc2)cc1 | – | – | end-stage renal disease patients | 50 mg single dose, predialysis | volume of distribution | 37.9 ± 3.8 L |
| O=C(NC(=O)c1c(F)cccc1F)Nc1cc(Cl)c(OC(F)(F)C(F)F)c(Cl)c1 | CYP2D6 | inhibitor | – | Tox21 screening | IC50 | inactive |
| c1ccc2c(c1)Cc1ccccc1-2 | – | – | – | experimental mean | log Kow | 4.18 |
| CN(C)CCCN1c2ccccc2Sc2ccc(Cl)cc21 | – | – | human | – | fraction unbound | 0.003 |
| O=S(=O)([O-])C(F)(F)C(F)(F)C(F)(F)C(F)(F)C(F)(F)C(F)(F)F.[K+] | CYP2D6 | – | – | concentration not given | activity | inactive |
| O=C(O)[C@@H](c1ccccc1)[C@@H]1CCCCN1 | – | – | human, CES1 wild type, plasma | oral, 10 mg methylphenidate, single dose, median | half-life | 6.9 h |
| CCN(C)C(=O)Oc1cccc([C@H](C)N(C)C)c1 | – | – | dog | – | fraction unbound | 0.487 |
| Cc1nc2c([nH]1)-c1ccccc1N(C(=O)c1ccc(NC(=O)c3ccccc3-c3ccccc3)cc1)CC2 | hERG (human) | inhibitor | – | – | IC50 | 2240 nM |
| O=S(=O)([O-])C(F)(F)C(F)(F)C(F)(F)C(F)(F)C(F)(F)C(F)(F)C(F)(F)C(F)(F)F.[Li+] | CYP3A4 | inhibitor | – | Tox21 screening | IC50 | inactive |
| CN1CCCC(n2nc(Cc3ccc(Cl)cc3)c3ccccc3c2=O)CC1 (stereo not drawn) | – | – | mouse | – | fraction unbound | 0.012 |
